Measurements from different studies.
Compare with care: the assays were run in different laboratories. “And” joins repeats or separate records; there may be more than shown.

C=CCN1CCC23c4c5ccc(OC(=O)c6ccc(N)cc6)c4OC2C(=O)CCC3(O)C1C5 (stereo not drawn)  remaining compound (human plasma; 0 h): 104% and 100% and 95.9%
CC[C@H](C)[C@H](NC(=O)[C@@H](NC(=O)[C@H](CCCCN)NC(=O)[C@@H](NC(=O)[C@@H]1CCCN1[C@@H]1CN(C(=O)[C@@H](NC(=O)[C@@H](NC(=O)[C@@H](NC(=O)[C@@H](NC(=O)[C@@H](NC(=O)[C@@H](N)CCCCN)C(C)C)C(C)C)C(C)C)[C@@H](C)CC)[C@@H](C)O)CC[C@H]1NS(=O)(=O)c1ccc(C)cc1)[C@@H](C)O)C(C)C)C(=O)N[C@@H](CC(C)C)C(=O)N[C@@H](Cc1c[nH]cn1)C(N)=O  remaining intact peptide (LC-MS; pronase digest; 200 µM, 30 min, pH 7.5, 37 °C, together with: pronase 2.5 µg/mL): 100%
C[C@H](NC(=O)CNC(=O)[C@@H]1CCCN1C(=O)[C@H](CO)NC(=O)CNC(=O)[C@H](CO)NC(=O)[C@H](C)NC(=O)[C@H](CC(N)=O)NC(=O)[C@H](C)NC(=O)[C@H](CO)NC(=O)[C@H](C)NC(=O)[C@H](CO)NC(=O)[C@@H]1CCCN1C(=O)[C@H](Cc1ccccc1)NC(=O)[C@H](C)NC(=O)[C@H](CO)NC(=O)[C@@H]1CCCN1C(=O)[C@H](Cc1ccccc1)NC(=O)[C@@H](NC(=O)[C@H](CC(=O)O)NC(=O)[C@@H](N)CO)[C@@H](C)O)C(=O)N[C@@H](CCCNC(=N)N)C(=O)N[C@@H](CO)C(=O)O  remaining peptide (CHO-K1 culture medium; 80 min): 1.03%
Cc1nnc(-c2ccc(CC(=O)NCCCC[C@H](NC(=O)c3ccc(OCc4ccc(B(O)O)cc4)c(-c4nc5ccccc5c(=O)[nH]4)c3)C(=O)NCC(=O)NCC(=O)NCC(=O)N[C@@H](Cc3ccccc3)C(=O)N[C@@H](Cc3ccccc3)C(=O)O)cc2)nn1  remaining compound (UPLC-MS/MS; human serum; 100 µM, 3.5 h, 37 °C): 78.7%
C#Cc1c(F)ccc2cc(O)cc(-c3ncc4c(N5CC6CCC(C5)N6C(=O)OCOC(=O)CCC)nc(OC[C@@]56CCCN5C[C@H](F)C6)nc4c3F)c12  remaining prodrug (simulated gastric fluid; 1 µM, 30 min, 37 °C): 95.1%
C=CCN1CCC23c4c5ccc(OC(=O)c6ccc(NCc7cn(CCCCCCCCCCCC)nn7)cc6)c4OC2C(=O)CCC3(O)C1C5 (stereo not drawn)  remaining compound (human plasma; 5 µM, 24 h, 37 °C): 94.4%
CC(C)[C@@H]1NC(=O)CNC(=O)[C@H](CC(N)=O)NC(=O)[C@H](CCCNC(=N)N)NC(=O)[C@H](Cc2ccc(O)cc2)NC(=O)[C@H](C(C)C)NC(=O)[C@@H](NC(=O)[C@@H](NC(=O)[C@H](CC(N)=O)NC(=O)[C@H](Cc2c[nH]c3ccccc23)NC(=O)[C@H](C)NC(=O)[C@H](Cc2ccccc2)NC(=O)CNC(=O)[C@H](CCCCN)NC(=O)[C@H](Cc2ccccc2)NC(=O)[C@H](Cc2ccccc2)NC(=O)[C@H](CCCCN)NC(=O)OCC2c3ccccc3-c3ccccc32)C(C)C)CSSC[C@@H](C(=O)N[C@@H](Cc2c[nH]cn2)C(=O)N[C@@H](CCCNC(=N)N)C(=O)N[C@@H](CCCNC(=N)N)C(=O)N[C@@H](C)C(=O)N[C@@H](CC(N)=O)C(N)=O)NC(=O)[C@H](C(C)C)NC(=O)[C@H](CCCNC(=N)N)NC1=O  remaining peptide (HPLC; mouse mammary gland homogenate; 2560 µM, 12.00 h, 37 °C, 50 mg/mL tissue): 61.8% and 55.6% and 60.5%
C#Cc1c(F)ccc2cc(O)cc(-c3ncc4c(N5CC6CCC(C5)N6C(=O)OC(CC)OC(=O)CCC)nc(OC[C@@]56CCCN5C[C@H](F)C6)nc4c3F)c12 (stereo partly drawn)  remaining prodrug (simulated gastric fluid; 1 µM, 30 min, 37 °C): 94.4%
Cc1cc(-c2ccc3ccccc3c2)nnc1NCCN1CCN(C)CC1  remaining compound (rat liver microsomes; 20 min): 84.6%
